Assay results collected from several papers.
A part holds a random share of what one study measured.
Sequence of UniProt P07333 (whole entry, looked up): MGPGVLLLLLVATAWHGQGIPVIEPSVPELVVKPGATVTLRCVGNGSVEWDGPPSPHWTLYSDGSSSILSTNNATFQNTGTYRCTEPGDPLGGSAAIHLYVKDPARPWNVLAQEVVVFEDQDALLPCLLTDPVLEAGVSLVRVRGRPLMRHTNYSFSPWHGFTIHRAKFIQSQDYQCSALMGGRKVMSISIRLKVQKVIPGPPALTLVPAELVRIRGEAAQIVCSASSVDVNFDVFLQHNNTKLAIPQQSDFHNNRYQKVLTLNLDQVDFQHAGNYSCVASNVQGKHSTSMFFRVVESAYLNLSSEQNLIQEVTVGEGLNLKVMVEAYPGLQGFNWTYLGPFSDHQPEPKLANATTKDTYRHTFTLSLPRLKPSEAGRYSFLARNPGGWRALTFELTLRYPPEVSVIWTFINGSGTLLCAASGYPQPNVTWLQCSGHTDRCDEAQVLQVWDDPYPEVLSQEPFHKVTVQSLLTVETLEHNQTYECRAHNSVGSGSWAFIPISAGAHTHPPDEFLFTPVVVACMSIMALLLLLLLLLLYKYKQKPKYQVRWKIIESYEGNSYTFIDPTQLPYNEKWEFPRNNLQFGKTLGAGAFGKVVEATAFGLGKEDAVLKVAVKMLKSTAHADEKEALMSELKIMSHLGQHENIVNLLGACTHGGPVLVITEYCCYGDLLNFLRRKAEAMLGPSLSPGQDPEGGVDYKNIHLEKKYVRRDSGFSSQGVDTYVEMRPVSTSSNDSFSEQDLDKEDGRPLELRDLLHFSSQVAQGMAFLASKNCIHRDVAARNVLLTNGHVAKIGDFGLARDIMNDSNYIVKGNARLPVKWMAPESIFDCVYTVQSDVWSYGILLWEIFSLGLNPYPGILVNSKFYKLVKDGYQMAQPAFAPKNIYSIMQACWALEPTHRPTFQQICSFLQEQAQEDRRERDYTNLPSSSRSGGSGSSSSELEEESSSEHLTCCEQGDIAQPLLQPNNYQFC
Sequence of UniProt O75460 (whole entry, looked up): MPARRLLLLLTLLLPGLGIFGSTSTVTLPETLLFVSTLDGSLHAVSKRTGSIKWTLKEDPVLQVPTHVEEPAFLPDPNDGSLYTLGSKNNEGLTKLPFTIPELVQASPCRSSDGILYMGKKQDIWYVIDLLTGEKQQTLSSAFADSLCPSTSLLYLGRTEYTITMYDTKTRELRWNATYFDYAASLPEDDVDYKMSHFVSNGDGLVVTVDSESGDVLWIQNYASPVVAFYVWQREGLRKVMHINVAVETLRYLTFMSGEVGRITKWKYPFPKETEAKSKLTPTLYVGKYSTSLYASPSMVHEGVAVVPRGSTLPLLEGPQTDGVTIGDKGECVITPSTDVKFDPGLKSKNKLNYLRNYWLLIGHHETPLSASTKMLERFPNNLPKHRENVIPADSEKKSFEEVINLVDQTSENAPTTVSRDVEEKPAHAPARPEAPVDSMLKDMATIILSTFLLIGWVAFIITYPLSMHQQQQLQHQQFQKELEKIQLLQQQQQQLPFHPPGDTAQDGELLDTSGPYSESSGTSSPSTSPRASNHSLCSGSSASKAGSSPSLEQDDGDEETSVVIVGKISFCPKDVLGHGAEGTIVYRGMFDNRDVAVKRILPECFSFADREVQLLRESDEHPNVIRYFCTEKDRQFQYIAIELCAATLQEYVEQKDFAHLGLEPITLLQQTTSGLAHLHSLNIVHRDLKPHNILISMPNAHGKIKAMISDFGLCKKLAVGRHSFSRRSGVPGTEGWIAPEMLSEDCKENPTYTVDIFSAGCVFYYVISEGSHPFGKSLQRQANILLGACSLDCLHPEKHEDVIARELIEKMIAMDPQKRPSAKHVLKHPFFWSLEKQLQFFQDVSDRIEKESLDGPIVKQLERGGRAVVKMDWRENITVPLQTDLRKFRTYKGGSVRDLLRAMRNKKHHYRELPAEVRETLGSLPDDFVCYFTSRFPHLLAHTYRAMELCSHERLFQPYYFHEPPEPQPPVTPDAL
Sequence of UniProt P68400 (whole entry, looked up): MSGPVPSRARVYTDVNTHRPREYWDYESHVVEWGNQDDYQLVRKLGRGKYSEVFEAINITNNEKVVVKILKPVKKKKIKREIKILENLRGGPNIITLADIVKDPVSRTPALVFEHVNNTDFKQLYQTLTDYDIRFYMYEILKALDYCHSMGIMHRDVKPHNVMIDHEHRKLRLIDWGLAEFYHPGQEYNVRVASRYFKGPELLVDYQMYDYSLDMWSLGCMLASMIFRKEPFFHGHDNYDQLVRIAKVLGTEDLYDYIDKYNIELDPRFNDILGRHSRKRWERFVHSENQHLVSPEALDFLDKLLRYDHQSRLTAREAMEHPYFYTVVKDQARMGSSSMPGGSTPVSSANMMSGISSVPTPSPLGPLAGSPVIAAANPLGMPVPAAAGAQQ
Sequence of UniProt P51955 (whole entry, looked up): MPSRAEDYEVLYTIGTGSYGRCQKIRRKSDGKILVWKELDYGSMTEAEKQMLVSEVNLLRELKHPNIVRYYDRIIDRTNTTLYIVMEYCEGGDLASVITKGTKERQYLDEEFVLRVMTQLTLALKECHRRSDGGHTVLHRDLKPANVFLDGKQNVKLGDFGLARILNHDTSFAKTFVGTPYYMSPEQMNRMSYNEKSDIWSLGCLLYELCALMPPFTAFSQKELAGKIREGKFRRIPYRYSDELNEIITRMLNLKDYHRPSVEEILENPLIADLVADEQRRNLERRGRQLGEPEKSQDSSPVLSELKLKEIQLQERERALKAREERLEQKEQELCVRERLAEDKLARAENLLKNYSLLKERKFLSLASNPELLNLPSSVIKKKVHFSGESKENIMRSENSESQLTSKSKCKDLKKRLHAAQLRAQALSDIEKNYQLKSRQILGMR
Sequence of UniProt Q13164 (whole entry, looked up): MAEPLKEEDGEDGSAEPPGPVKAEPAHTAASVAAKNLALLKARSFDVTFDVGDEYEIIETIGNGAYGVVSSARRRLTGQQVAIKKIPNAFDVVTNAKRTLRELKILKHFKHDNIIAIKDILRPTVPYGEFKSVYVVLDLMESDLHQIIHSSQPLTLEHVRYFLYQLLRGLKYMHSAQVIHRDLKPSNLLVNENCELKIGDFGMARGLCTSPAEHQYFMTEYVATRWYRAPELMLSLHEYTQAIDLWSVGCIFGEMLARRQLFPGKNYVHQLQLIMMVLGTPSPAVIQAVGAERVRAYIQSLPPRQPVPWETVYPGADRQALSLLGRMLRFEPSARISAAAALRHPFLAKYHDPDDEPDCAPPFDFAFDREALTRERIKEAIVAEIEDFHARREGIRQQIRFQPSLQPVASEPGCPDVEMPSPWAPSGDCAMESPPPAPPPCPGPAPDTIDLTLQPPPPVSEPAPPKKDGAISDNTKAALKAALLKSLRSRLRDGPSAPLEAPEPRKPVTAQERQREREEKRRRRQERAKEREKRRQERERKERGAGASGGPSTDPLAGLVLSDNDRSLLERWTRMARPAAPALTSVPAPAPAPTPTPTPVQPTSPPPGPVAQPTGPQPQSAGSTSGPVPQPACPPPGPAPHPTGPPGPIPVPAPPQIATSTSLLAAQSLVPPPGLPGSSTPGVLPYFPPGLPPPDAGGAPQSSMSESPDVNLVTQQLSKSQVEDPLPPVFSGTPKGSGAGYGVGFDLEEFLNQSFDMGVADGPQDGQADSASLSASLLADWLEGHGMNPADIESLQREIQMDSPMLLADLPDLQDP
Sequence of UniProt P53778 (whole entry, looked up): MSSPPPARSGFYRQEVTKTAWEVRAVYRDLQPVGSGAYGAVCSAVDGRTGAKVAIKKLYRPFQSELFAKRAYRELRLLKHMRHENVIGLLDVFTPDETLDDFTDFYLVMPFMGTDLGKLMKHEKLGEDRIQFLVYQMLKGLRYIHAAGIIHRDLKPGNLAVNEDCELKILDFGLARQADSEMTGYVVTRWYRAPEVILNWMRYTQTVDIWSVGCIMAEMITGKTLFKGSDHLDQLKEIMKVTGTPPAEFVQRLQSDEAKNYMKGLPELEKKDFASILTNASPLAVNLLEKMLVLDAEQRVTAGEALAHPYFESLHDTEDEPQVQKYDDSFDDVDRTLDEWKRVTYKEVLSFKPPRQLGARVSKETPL

Study 1 — effect on: cell-free assay; technique: competition with immobilised ligand; tested at: 1 µM
Compound: CCCOc1ccc([C@@H]2[C@@H](C(=O)O)[C@H](c3ccc4c(c3)OCO4)CN2CC(=O)Nc2c(CC)cccc2CC)cc1
| target | remaining binding |
| --- | --- |
| EGFR (Homo sapiens, UniProt P00533, del747-750/T751S) | 100% |
| MAP3K3 (Homo sapiens, UniProt Q99759) | 85% |
| CSF1R (Homo sapiens, UniProt P07333) | 100% |
| Macrophage colony-stimulating factor 1 receptor, autoinhibited (CSF1R, Homo sapiens, UniProt P07333) | 90% |
| ERN1 (Homo sapiens, UniProt O75460) | 90% |
| NEK2 (Homo sapiens, UniProt P51955) | 97% |
| IRAK3 (Homo sapiens, UniProt Q9Y616) | 100% |
| MAPK12 (Homo sapiens, UniProt P53778) | 100% |
| MAPK7 (Homo sapiens, UniProt Q13164) | 93% |
| CSNK2A1 (Homo sapiens, UniProt P68400) | 100% |
| MAK (Homo sapiens, UniProt P20794) | 93% |
| MUSK (Homo sapiens, UniProt O15146) | 97% |
| HIPK3 (Homo sapiens, UniProt Q9H422) | 85% |

Study 2 — medium: 1,9-decadiene/PBS; pH: 7.4
| SMILES | logD |
| --- | --- |
| CC(C)C[C@@H]1NC(=O)[C@H](CC(C)C)NC(=O)[C@@H](CC(C)C)NC(=O)[C@H](C(C)C)NC(=O)[C@H](C(C)C)NC(=O)[C@H](C)NC(=O)[C@H](C)NC1=O | -1.08 |
| CC(C)C[C@@H]1NC(=O)[C@H](C)NC(=O)[C@H](CC(C)C)NC(=O)[C@@H](CC(C)C)NC(=O)[C@H](CC(C)C)NC(=O)[C@H](C)NC(=O)[C@H](CCC(=O)N2CCCC2)NC1=O | -2.31 |
| CC(C)C[C@@H]1NC(=O)[C@H](C)NC(=O)[C@H](CCC(=O)N2CCCC2)NC(=O)[C@H](C)NC(=O)[C@H](CC(C)C)NC(=O)[C@H](CC(C)C)NC(=O)[C@H](CC(C)C)NC1=O | -1.66 |
| CC(C)C[C@@H]1NC(=O)[C@H](C(C)C)NC(=O)[C@H](C)NC(=O)[C@@H](CC(C)C)NC(=O)[C@@H](CCC(=O)N2CCCC2)NC(=O)[C@H](CC(C)C)NC(=O)[C@@H](CC(C)C)NC1=O | -0.955 |
| CC(C)C[C@@H]1NC(=O)[C@H](C(C)C)NC(=O)[C@H](CC(C)C)NC(=O)[C@@H](CC(C)C)NC(=O)[C@H](CC(C)C)NC(=O)[C@H](C(C)C)NC(=O)[C@H](Cc2cscn2)NC1=O | 0.78 |
| CC(C)C[C@@H]1NC(=O)[C@H](C)NC(=O)[C@H](C)NC(=O)[C@H](CCC(=O)N2CCCC2)NC(=O)[C@H](CC(C)C)NC(=O)[C@H](CC(C)C)NC(=O)[C@H](CC(C)C)NC1=O | -1.87 |
| CC(C)C[C@@H]1NC(=O)[C@H](CC(C)C)NC(=O)[C@H](CC(C)C)NC(=O)[C@H](C(C)C)NC(=O)[C@@H](Cc2cscn2)NC(=O)[C@@H](CC(C)C)NC(=O)[C@H](C)NC1=O | 0.0765 |
| CC(C)C[C@@H]1NC(=O)[C@H](C(C)C)NC(=O)[C@H](C)NC(=O)[C@H](CC(C)C)NC(=O)[C@H](C(C)C)NC(=O)[C@H](CC(C)C)NC(=O)[C@@H](CC(C)C)NC1=O | 0.897 |
| CC(C)C[C@@H]1NC(=O)[C@@H](C)NC(=O)[C@H](CCC(=O)N2CCCC2)NC(=O)[C@@H](C(C)C)NC(=O)[C@H](C)NC(=O)[C@H](CC(C)C)NC(=O)[C@@H](CC(C)C)NC1=O | -2.6 |
| CC(C)C[C@@H]1NC(=O)[C@H](CC(C)C)NC(=O)[C@H](CC(C)C)NC(=O)[C@@H](C)NC(=O)[C@H](C(C)C)NC(=O)[C@H](C)NC(=O)[C@H](C)NC1=O | -2.42 |

Study 3 — Structure (SMILES): C=CCc1ccc(O)c(-c2cc(CC=C)ccc2O)c1; effect on: chloride current; technique: whole-cell voltage clamp
ANO1 del476-501/R541I: Anoctamin-1 (ANO1, Homo sapiens, UniProt Q5XXA6, del476-501/R541I)
Sequence of UniProt Q5XXA6 (whole entry, unmodified, looked up): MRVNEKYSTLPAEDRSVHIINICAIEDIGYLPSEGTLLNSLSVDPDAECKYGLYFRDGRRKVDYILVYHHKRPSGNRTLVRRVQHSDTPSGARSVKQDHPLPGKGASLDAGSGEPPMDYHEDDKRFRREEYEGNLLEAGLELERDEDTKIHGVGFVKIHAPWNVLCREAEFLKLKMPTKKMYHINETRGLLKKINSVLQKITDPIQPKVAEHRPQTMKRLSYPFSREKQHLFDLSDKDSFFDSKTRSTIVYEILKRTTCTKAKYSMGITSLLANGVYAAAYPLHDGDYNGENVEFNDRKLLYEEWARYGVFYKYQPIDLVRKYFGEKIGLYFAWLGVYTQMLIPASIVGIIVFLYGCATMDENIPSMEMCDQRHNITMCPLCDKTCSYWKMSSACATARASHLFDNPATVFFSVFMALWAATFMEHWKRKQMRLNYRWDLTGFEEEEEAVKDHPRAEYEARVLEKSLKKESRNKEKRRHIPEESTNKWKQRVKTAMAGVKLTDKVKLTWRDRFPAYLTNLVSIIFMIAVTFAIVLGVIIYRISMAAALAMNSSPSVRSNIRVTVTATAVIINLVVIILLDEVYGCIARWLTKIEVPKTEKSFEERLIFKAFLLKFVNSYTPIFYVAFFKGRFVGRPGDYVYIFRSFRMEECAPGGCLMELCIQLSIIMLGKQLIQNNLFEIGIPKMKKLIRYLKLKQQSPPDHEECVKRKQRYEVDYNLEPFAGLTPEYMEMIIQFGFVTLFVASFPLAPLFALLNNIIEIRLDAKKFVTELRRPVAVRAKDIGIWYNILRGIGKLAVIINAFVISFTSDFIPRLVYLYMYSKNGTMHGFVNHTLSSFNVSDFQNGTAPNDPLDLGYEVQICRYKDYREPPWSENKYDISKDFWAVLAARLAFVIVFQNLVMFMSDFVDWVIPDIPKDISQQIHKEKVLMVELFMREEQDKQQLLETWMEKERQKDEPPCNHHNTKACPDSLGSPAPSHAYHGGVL
ANO1 del476-501/R541K: Anoctamin-1 (ANO1, Homo sapiens, UniProt Q5XXA6, del476-501/R541K)
| target | mode | tested at | notes | IC50 [µM] |
| --- | --- | --- | --- | --- |
| Anoctamin-1 (ANO1, Homo sapiens, UniProt Q5XXA6, del476-501/E649K) | inhibitor | – | E623K mutant at -20 mV | 229 |
| Anoctamin-1 (ANO1, Homo sapiens, UniProt Q5XXA6, D383A/del476-501) | – | – | membrane voltage 100 mV | 36.8 |
| ANO1 del476-501/R541I | inhibitor | – | R515I mutant at -20 mV | 42.3 |
| Anoctamin-1 (ANO1, Homo sapiens, UniProt Q5XXA6, del476-501/E649I) | inhibitor | – | E623I mutant at 60 mV | 120 |
| Anoctamin-1 (ANO1, Homo sapiens, UniProt Q5XXA6, del476-501/R541D) | inhibitor | – | R515D mutant at -100 mV | 207 |
| ANO1 del476-501/R541I | inhibitor | – | R515I mutant at 100 mV | 134 |
| Anoctamin-1 (ANO1, Homo sapiens, UniProt Q5XXA6, del476-501/E650A) | – | – | membrane voltage 40 mV | 13.9 |
| Anoctamin-1 (ANO1, Homo sapiens, UniProt Q5XXA6, del476-501/E649D) | inhibitor | – | E623D mutant at 60 mV | 40.9 |
| Anoctamin-1 (ANO1, Homo sapiens, UniProt Q5XXA6, del476-501/K629R) | inhibitor | 60 mV holding voltage | – | 244 |
| Anoctamin-1 (ANO1, Homo sapiens, UniProt Q5XXA6, del476-501/L548A) | – | – | membrane voltage 80 mV | 34.9 |
| ANO1 del476-501/R541K | inhibitor | – | R515K mutant at 40 mV | 18.5 |
| Anoctamin-1 (ANO1, Homo sapiens, UniProt Q5XXA6, del476-501/F807A) | – | – | membrane voltage 40 mV | 18.9 |
| ANO1 del476-501/R541K | inhibitor | – | R515K mutant at -80 mV | 25.3 |

Study 4 — cell line: HaCaT; tested at: 100 µM; time: 60 h
| Structure (SMILES) | viability [%] |
| --- | --- |
| COC(c1ccccc1)(c1ccccc1)[C@H](Oc1nc(C)cc(C)n1)C(=O)O | 156 |
| CC[C@H]1OC(=O)[C@H](C)[C@@H](O[C@H]2C[C@@](C)(OC)[C@@H](O)[C@H](C)O2)[C@H](C)[C@@H](O[C@@H]2O[C@H](C)C[C@H](N(C)C)[C@H]2O)[C@](C)(OC)C[C@@H](C)C(=O)[C@H](C)[C@@H](O)[C@]1(C)O | 83.3 |
| CC(C)C[C@H](NC(=O)[C@@H](O)[C@H](N)Cc1ccccc1)C(=O)O | 107 |
| N[C@H](Cc1ccccc1)C(=O)O | 134 |
| C[C@@H]1C[C@H]2[C@@H]3CCC4=CC(=O)C=C[C@]4(C)[C@@]3(Cl)[C@@H](O)C[C@]2(C)[C@@]1(OC(=O)c1ccco1)C(=O)CCl | 16.5 |
| O=C(O)c1cc(-c2ccc(F)cc2F)ccc1O | 92.1 |

Some of these lines once more (study 4):
| Structure (SMILES) | viability [%] |
| --- | --- |
| N[C@H](Cc1ccccc1)C(=O)O | 134 |
| O=C(O)c1cc(-c2ccc(F)cc2F)ccc1O | 92.1 |
